Measurements pooled from the literature.
Each numbered part is a random draw from the data of one study; scales do not carry over between parts.

Sample 1
Target: Sal-like protein 4, full length isoform B (SALL4, Homo sapiens, UniProt Q9UJQ4-2, residues 1-616)
Technique: universal PBM
Form: double-stranded DNA, one strand shown
Medium: in vitro
Concentration: not given
Setting: 8-mer, flanks averaged, mean of replicates
Reading: higher = stronger binding
Target sequence (chain): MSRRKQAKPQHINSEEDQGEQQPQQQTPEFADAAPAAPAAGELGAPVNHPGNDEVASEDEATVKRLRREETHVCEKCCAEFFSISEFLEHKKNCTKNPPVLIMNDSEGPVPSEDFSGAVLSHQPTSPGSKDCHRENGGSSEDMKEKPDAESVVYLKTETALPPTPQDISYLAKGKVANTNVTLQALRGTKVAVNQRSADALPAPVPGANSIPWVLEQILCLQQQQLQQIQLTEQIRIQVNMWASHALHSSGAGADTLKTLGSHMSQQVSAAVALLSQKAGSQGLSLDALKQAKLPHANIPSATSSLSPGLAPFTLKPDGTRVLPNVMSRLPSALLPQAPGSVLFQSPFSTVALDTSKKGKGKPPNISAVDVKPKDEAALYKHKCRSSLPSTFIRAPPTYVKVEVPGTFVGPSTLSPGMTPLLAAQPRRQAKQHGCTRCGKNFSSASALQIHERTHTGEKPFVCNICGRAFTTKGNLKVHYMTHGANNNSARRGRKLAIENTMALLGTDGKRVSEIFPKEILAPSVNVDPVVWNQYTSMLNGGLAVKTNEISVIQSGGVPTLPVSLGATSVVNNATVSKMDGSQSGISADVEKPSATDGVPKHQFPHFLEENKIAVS
For `AGCGTATC`, the E-score was -0.0719.
The E-score of `ACAGCGGT` is reported as -0.138.
`TGCCTACA` gave an E-score of 0.00704.
With `GTCTTCGA` the E-score was -0.0536.
`CGGAAAGC` has an E-score of -0.175.
`TCGCATAA` has an E-score of 0.257.
For `AACTCAGT`, the E-score was -0.12.

Sample 2
Target: Hepatocyte nuclear factor 3-alpha (Foxa1, Mus musculus, UniProt P35582, residues 1-468, full length assumed)
Technique: EMSA with sequencing
Form: double-stranded DNA, one strand shown
Medium: in vitro
Concentration: 10 and 20 nM
Setting: whole designed probe, mean of two concentrations, ends assumed
Relative to: negative control set to 0
Reading: higher = stronger binding
Residues (chain): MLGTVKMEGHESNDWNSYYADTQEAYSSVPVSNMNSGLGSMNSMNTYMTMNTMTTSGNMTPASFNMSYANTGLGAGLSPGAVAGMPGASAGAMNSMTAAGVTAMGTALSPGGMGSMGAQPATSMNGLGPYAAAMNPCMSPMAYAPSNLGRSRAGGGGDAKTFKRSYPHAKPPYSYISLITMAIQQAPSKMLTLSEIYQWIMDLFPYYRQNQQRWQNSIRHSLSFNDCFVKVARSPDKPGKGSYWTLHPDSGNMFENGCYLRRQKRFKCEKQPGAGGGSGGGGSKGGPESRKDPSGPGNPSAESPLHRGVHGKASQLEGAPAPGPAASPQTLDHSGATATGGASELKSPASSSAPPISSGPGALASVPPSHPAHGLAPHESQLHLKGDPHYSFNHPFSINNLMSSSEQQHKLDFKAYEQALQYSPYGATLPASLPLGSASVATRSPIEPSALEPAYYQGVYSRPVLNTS
Under “normalised bound fraction”, `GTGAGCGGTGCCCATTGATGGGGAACTCTACACTCTGCTGCAGCTGACAATAGGCAGCATCAGCAGCTGAAAGATGAGAGTTTGGTAATATATTTTTCATTTCCTTTCACTTGCTCCTTGTTTACTTTCTTGTCAAAGCAAACCTAGCTCACCCCTGGGGCATGTCATTTTATCAAAAAAGAAATTATGGGTTATCCCCTTTCACAGTTTTCAAAGCTATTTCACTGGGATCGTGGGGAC` is recorded as 0.343 ratio.
Under “normalised bound fraction”, `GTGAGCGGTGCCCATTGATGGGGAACATCTTCCCCCTCTTCCTTGCCCCACCAGCTCACCTACGGGGGTTATTTGCAGATAGGAAAATAAATAAAGCCGGCATTCGTTAACGCAGTTCTGGCGCAAACTGCTGTTTGCTCTGGATGAATCATGGTCCTTTGGCGACGCCAGGCTCCGGGAGAGCAAAGCACCGTGTCAGGGCCATGATCCGGGGTGGCCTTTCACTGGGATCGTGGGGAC` is recorded as 0.35 ratio.
`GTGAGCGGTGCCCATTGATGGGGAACATCTTCCCCCTCTTCCTTGCCCCACCAGCTCACCTTCCCGGGTATATTGGAGATAGGAAATTAATATAAGCCGGCATTCGTTAACCCTCTTCTGGCGCAAACTGCCAGAGCAAACAGATCTAACATGGTCCTTTGGCGACGCCAGGCTCCGGGAGAGCAAAGCACCGTGTCAGGGCCATGATCCGGGGTGGCCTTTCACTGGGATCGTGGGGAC`: “normalised bound fraction” 0.163 ratio.
`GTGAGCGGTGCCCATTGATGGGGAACGAAATTAGTTCTTTACTACTTAAATAAAATTACATCCTATGATATAAAATGGCATTTGTTTGTTTTTAGTCATTATAACACTGTATACTATTGGTGTTTACTTTGAATAAGAATCATGTGGTACAATAGGGAAGCAATTTCTGCAAATACATTACTTCTTTAATTCAAAACATTGTTTATATACAATTGTGATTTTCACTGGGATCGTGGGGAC`: “normalised bound fraction” 0.525 ratio.
For `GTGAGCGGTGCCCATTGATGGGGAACACATAACAATAAGTGGACACTCCATGTAAGTGAAGGCTTAAAAAAATAAATGAAAGGAAGAAAGAATCTCAATACTATTATCAGATAAGAAAAAGTAAACAAGTACATACAAGTACATTTTATAATGATAAGCTATTTAGTATATAGCACAAGTATGTTGAACATGAGTCTTTAAGTACCAAGTTACAAAAACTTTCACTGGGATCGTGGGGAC`, “normalised bound fraction” read 0.399 ratio.

Sample 3
Target: Phosphate system positive regulatory protein PHO4, full length, GST-tagged (PHO4, Saccharomyces cerevisiae, UniProt P07270, residues 1-312)
Technique: competition protein-binding microarray
Form: double-stranded DNA, one strand shown
Medium: in vitro
Concentration: 2 µM
Setting: whole 60-bp probe, lowest competitor level
Together with: Cbf1 competitor, 0.05 µM
Reading: higher = stronger binding
Target sequence (chain): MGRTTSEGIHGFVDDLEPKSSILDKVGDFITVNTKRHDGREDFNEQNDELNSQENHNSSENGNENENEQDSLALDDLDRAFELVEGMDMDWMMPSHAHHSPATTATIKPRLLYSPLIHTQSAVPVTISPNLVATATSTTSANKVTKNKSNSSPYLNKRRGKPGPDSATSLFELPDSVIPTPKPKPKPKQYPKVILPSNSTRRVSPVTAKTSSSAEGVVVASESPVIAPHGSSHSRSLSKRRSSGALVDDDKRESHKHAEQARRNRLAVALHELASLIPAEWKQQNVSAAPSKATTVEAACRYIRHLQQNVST
`CGGGGTTAAGTTTGTCACGCGACTTGCTTGCAGCAGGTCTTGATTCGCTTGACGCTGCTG` gave a fluorescence intensity of 6400 a.u.
For `CTTCTGTAAATTTGCAGCGTGGGTGGACGCGCCCCGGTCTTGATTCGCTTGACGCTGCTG`, the fluorescence intensity was 8080 a.u.
`CTATTCAGGTTTCTGGGCGTGGGACAGTTGGTAACAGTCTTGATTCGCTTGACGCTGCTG` gave a fluorescence intensity of 7490 a.u.
For `TGCGCAACAACTTGCCCAGTGGGTGTATGTCTAGAAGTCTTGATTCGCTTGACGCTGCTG`, the fluorescence intensity was 4330 a.u.
For `CTTTCCCGATCTTCGCACGTGTTTTTAGCACATTTGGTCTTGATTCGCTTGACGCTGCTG`, the fluorescence intensity was 19400 a.u.
The fluorescence intensity of `ACATCTCCATTGATTTGTTCTAATAGCATTTCATCCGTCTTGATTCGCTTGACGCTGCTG` is reported as 3740 a.u.
The fluorescence intensity of `AACGACACCGGCACCTTCGTGACGGCCGACTAATGGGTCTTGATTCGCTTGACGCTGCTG` is reported as 4880 a.u.
With `TTGGATCTGACTCCTCACGTGGCAAATCTAAAATTGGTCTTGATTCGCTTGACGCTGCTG` the fluorescence intensity was 15800 a.u.
For `GTCTTGTCTCATTGTGTCGTGGGTGTCCCCACTTCAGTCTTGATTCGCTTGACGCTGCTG`, the fluorescence intensity was 7100 a.u.

Mixed results
With `PhoQ, residues 284 288 289 292 302 303 SASVAL` the fold induction was 16.9 (PhoP, residues 12 14 15 18 19 LHHSG (Escherichia coli, UniProt P23836); Sort-seq, refers to: YFP reporter; E. coli; PhoQ-PhoP variant library, together with: 10 µM Mg2+; relative to: high Mg2+ state, higher = stronger signaling).
